Measurements pooled from the literature.
Every numbered part comes from another study and shows a few of its results, in no order.

Set 1 — technique: RNA Bind-n-Seq; form: RNA; sample: in vitro; concentration: 200 nM; setting: whole 134-nt RNA, ends assumed; with: 150 mM KCl; relative to: input library; direction: higher = stronger binding; measurement: log2 enrichment
Target: Fragile X messenger ribonucleoprotein 1, C-terminal low-complexity region (Fmr1, Mus musculus, UniProt P35922)
All sequences stand within: GGGAGUUCUACAGUCCGACGAUC … UGGAAUUCUCGGGUGUCAAGG
UCCUGUGCUACACAUCGUAUGUACCGAAUCGGCCCCCCGGCCCCCCGGGGCCCCCCGGGGAAAGUAUUAUGUUACGCCGUUCGGAUCUGC: -0.302
CUCAAGUCCUGUGCUACACAUCGUAUGUACCGAAUCGGGUUUGGGUGGGUGGGAAAGUAUUAUGUUACGCCGUUCGGAUCUGCACUUCCA: 1.52
CCUGUGCUACACAUCGUAUGUACCGAAUCGGUUUUUUUGGGUUUUUUUGGGUUUUUUUGGGAAAGUAUUAUGUUACGCCGUUCGGAUCUG: -0.837
CAAGUCCUGUGCUACACAUCGUAUGUACCGAAUCGGGUGGGAGGGAAAAAAAGGGAAAGUAUUAUGUUACGCCGUUCGGAUCUGCACUUC: 0.429
ACCAUGCAGGUGCGCAUCUUUGGGAAGUGGGGCAAGGGGGGGAUAGGGAGGGGGGUAACACUUUGGGAACAGGUGGUCCCAGGUCGUUUC: 0.744
UGGCCCUGGUGGCAUGCGGGGUGGAAGAGGUGGCCUCAUGGAUCGUGGUGGUCCCGGUGGAAUGUUCAGAGGUGGCCGUGGUGGAGACAG: -0.079
UUCGACGAAACAAUUCGAAAGCCCAUCAGUUUGGGUUGUGGCCAUACUGUCUGCAAGAUGUGCCUGAAUAAACUCCACCGCAAGGCUUGC: 0.169
GCAGGAAGUAAAAACAAAUGGAAAUGCUUAGGAUAGUGGCAGGGGUGGGGGUUGCUAAGGAAAGGGUGGGAUGGGAGUGGGUAAAGAGUU: 0.135
ACCAUGCAGGUGGGCAUCUUUGGGAAGUGGGGCAAGGGGGGGAUAGGGAGGGGGGUAACACUUUGGGUACAGGUGGUCCCAGGUCGUUUC: 0.724
CAAGUCCUGUGCUACACAUCGUAUGUACCGAAUCGGGCCCGGGCCCGGCCCGGGGAAAGUAUUAUGUUACGCCGUUCGGAUCUGCACUUC: -0.726
GCCAUGCAGGUGGGCAUCUUUGGGAAGUGGGGCAAGGGGGGGAUAGGGAGGGGGGUAACACUUUGGGAACAGGUGGUCCCAGGUCGUUUC: 0.878
UCAAGUCCUGUGCUACACAUCGUAUGUACCGAAUCGGAAAAAGGAAAAAGGUGGAAAGUAUUAUGUUACGCCGUUCGGAUCUGCACUUCC: -0.521
CUCAAGUCCUGUGCUACACAUCGUAUGUACCGAAUCGGAGGAGGUUUUUUUGGAAAGUAUUAUGUUACGCCGUUCGGAUCUGCACUUCCA: -0.308
CUCAAGUCCUGUGCUACACAUCGUAUGUACCGAAUCGGGUGGGUGGGUUUGGGAAAGUAUUAUGUUACGCCGUUCGGAUCUGCACUUCCA: 1

Set 2 — technique: RNA Bind-n-Seq; form: RNA; sample: in vitro; concentration: not given; relative to: input RNA pool; direction: higher = stronger binding; measurement: bound/input enrichment
Target: RING finger protein unkempt homolog, zinc fingers 1-6, GST-SBP tag (UNK, Homo sapiens, UniProt Q9C0B0, residues 30-357)
UniProt Q9C0B0, sequence (30-357, looked up): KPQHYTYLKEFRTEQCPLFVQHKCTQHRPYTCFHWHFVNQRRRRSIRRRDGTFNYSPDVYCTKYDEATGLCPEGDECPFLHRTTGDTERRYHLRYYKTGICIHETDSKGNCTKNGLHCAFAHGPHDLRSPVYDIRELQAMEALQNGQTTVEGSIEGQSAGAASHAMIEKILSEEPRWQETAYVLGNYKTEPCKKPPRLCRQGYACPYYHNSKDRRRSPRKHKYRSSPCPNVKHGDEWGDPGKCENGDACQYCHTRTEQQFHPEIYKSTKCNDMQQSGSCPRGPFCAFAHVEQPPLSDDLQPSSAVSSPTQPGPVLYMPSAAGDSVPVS
Setting: RNA with constant flanks, human and mouse sites, ends assumed
All sequences stand within: GGGAGUUCUACAGUCCGACGAUC … CAACAGAGGAUUGAGCAUCA
UCACUACUUUCUGUGGAACAGAAAAGCAAAGCGCUAUUCUAAUCAGCAAGUGAUGGCAUCACUGAGCUUCAACUCCACGUGUGUGACUAUAAAACACCCUGUGGCCAAGAGCAGAUUGCC: 0.2 ratio
GGCAGGCCAGCACCUGGCUCAGUGUCAGUCUAUUUAUCAGAGGUGUAAAUAAUCCACACAUAGUUUUUCUCCUUUUAGAUUAUUUUGUAUUUGUUUAAAAAAUAUUUGUCAAAAUACAAA: 34.1 ratio
AAGGCCUCCUCCUCGUCGGCCUCUUCGGCAGGGGCUCUGGAGUCCUCGUUGGAUCGAAAAUUCCAGUCGGUAACCAACACCAUGGAGUCCAUUCAAGGCUUGUCGUCUUGGUGUAUAGAG: 0.135 ratio
CUUCUGUUUGUAAGGAUGAUUUUAAUAUUAAUUCCAGGAACACAUGUUUUUAUUUCCUCUGCUGGAAUAGGAGAAAGCUUAAUAUAUUCCCAAGCUGAAUGUUCUUGAAUUAUAUCUGCA: 0.242 ratio
CCCCCUUUUAAAAUCAACAGGAAAUGUUUCAAAGGAGGGAUGAAAUGCUUCUUGGCUUCCUCAGCACUUGGCAAGGUAGACCUCAUAGCAACCUUGAAUAUGACUUUCUUUAGUCUCUAG: 2.94 ratio
ACAGUAAAAGCUGCAGAAAUGGCCCAGCGUUUGAGUGGGAUUAAUCGAUGGUGUAUCAGUGGCACUCCAGUACAGAGAGGAUUAGAGGAUCUUUUUGGGUUAGUGGUCUUUCUUGGUAUU: 0.347 ratio
UCUUACUCAGGGGAAAAUACAGAAGCUUGGUACCCUCCAGGUCAUGGUGAUAUUUACGCCAGUUUCUACAACUCUGGAUUGCUUGAUACCUUUAUAGGAGAAGGCAAAGAGUAUAUUUUU: 0.14 ratio
AGGCGCAAAGCAGCAAAUGUCACGUUACUCACCUCACUGGUAGAAGGGGAAGCUGUUCACUUAGCUCGGGAUUUCGGGUAUAUUUGUGAAACAGAGUUUCCUGCUAAAGCCGUGUCCGAG: 0.117 ratio
AGGCUUGGUUGUUUCAAUCUAACUGUCAAAGGUCAUGCUAAAUGUGUAGAAGUAGUGAAAACUUUUAACUUGCCAUUGCUGAUGCUCGGUGGAGGAGGCUACACAAUCCGGAAUGUUGCC: 0.447 ratio
GUAAAUUAAAAUAUAAAUUCAUAUAAAUUCUGAAACCCAUACUUGAACAAUGUGAGGAGAUAGUUAAGGGGGAAAUCAAGGGUAAACUUGAUGUUUUCUACACAUGUUGACAGUAAGUGU: 3.54 ratio
AGUCUCACGAACGUAGGAAAUUCAUUUAGUGGCCCACCUAAUCCUUUAGUGUCUAGAUCUAGUAAGUUUCAGAACUCAUCAGUAGAAGAUGAUGAUGACGUUGUUUUUAUUGAACCUGUA: 6.99 ratio

Set 3 — technique: RNA Bind-n-Seq; form: RNA; sample: in vitro; concentration: 365 nM; relative to: no-protein control; direction: higher = stronger binding; measurement: RBNS enrichment (R)
Target: RNA binding protein fox-1 homolog 2, RRM domain, GST-SBP tag (RBFOX2, Homo sapiens, UniProt O43251-10, residues 100-194)
Setting: natural RNA segment, single round, ends assumed
All sequences stand within: GGGAGUUCUACAGUCCGACGAUC … UGGAAUUCUCGGGUGCCAA
Target sequence (chain): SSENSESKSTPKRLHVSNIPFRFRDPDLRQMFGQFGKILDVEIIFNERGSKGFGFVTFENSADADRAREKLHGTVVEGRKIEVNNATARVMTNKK
AAUAAACCUGCAGUUUAACAGAAUUUUGUAUUAAAUGGGGGAGUGUCAAUUUGCAUCAUUUGCAUAUUGAUUUCAAGUCUCCUAAUUUGGAAUGGGUAAAGUACAAAUGU: 1.29
GCCCCUCCGCUGUCCCACCCUGGGCCUGGGACACGGGCCUGGGGCAGUGUGUGUCUGCUGGUCAUGUGCUGGUGCCAGUUGGGGAGGAAUCAGCUGUCUCGGUGGAUUCU: 0.467
UUGUUCACAAGUAAUCUGUUGACAGUGCCAAUAAAUGAUAAAAAAAAAAUUAACAUGUCACAAUGUAACGGAUGACCAUAUGCACAAUUCCAUGAAUUAAAUCUGUUUCC: 0.564
AUGCAAUAAGUUCCUAGGUAGUCUACCCUUACCUUGAGGAAUGGGAAAAUGAACCUCAGCCCAUUAGGCAGGAAAAGUUGAUAUUUAAUAAACAAGGAAAGAGUGAACUG: 0.421
AGUAUUUUCUGAAGACGCAUAUGGCAGACGGAUUUGCGUAUACCAAGGAGAGUGGCAUAGGAGGGAAAAGCAUAUGUGGCUGAAACCUGUAAGUUGGUGUUGGUUAUGCA: 1.39
CUGAUGAUGCCACUACUUGUCACAUUGUGGUCCUGAGGCACACAGGUAAUGGGGCCACCUGCUUGACACAUUGUGACGGAACCGACACCAAAGCUGAGGUCCCCUUGAUC: 0.67
CUCAUUUAAUUUUUAUUAAACAUGCUCAGUACCUGUGUUGAGAAAAGGCUUUCUUUAUCCUAAAGAUUAUUACCUUUUUAAAGUGCUCUUAUAUUUUCAUGAGUUUUUAU: 0.484
UGCAGUAUGGCUGUGAUUUCUGCUUCUCCAUGUAGGGGAGCAUGGGACAUCCACUGCCACGCCAAACUCAACUUACCAAUACAUUACGGCCUUGAAAGGGAGCAGAGAGU: 0.33
AGCAGGCCACCAGCAGCAGCUGUGCAGCAUGGAACUCAGGCCAGGCUCCGAGGCUGGGGGAUCUGCUUGGAGUUUUCUGCCCCCCACCCCAAACUUCUGUCGAGGAGCAA: 3.2
CAAUGGCCAGGUACUACACUGUCGGGGAUUAUAGGUGGACUAACCACGUCUCUGCCUCCUAAAUUCCUGUAUGGACUUGAGAUGGCUUCAUUGAAAAACCACACGGCAGA: 0.256
AAAUUUUUAAAAAAAGACUUUAACUGCAGUUCCAAAGCUUCUCUAACCCAAAAAUUACAGUACCAAAUGAUUGACUCAGGAUUGUUUUUCCCAUAUUGAUAUGCUGGCAA: 0.857
CAUAUAGCCAGCAAAUGGAGGACUCCUAACUUCAGCACAAGUGGGUUUGGAGUGGCAGAGGCCAUACUUUCUUUGCCUCAGCUUCUCUCCUUCCUGCUGCCCUAUCCUCU: 0.255

Set 4 — technique: protein-binding microarray; form: double-stranded DNA, one strand shown; sample: in vitro; concentration: 940 nM top; setting: 60-bp whole probe; with: salmon DNA 0.4 mg/ml; relative to: random background probes; direction: higher = stronger binding; measurement: fitted relative affinity; all sequences stand within: GCCTAGCAC … GTCTTGATTCGCTTGACGCTGCTG
Target: Interferon regulatory factor 5, full length, phosphomimetic (IRF5, Homo sapiens, UniProt Q13568-2, residues 1-514, S451D/S453D/S456D/S462D)
TCAAGTCTGCAACATGGGACTGTGCTA: -0.175 z-score
GACGGTCTAGGTTTCGGGACGTGCTAG: 3.27 z-score
TTAGAACTCAGACTGGATTAGTGCTAG: -0.493 z-score
GACGGTGTCCTTTCCCTGACGTGCTAG: -0.0226 z-score
TCATCTTTCCACTTGTCACTGTGCTAG: 1.46 z-score
CCCAATTGTCTTTTCACTTTGTGCTAG: 1.53 z-score
CACGGTCTCGGTTTCGGGACGTGCTAG: 5.81 z-score
TTAGGTATCGGTCTCGGATAGTGCTAG: 9.76 z-score
GACGATATCGGGAGTGGAGACGTGCTA: 0.451 z-score
TTCATTTTCCAAATGCCCTCGTGCTAG: 0.481 z-score
AAAAAAAATGGAAATCTACCCGTGCTA: -0.064 z-score
TCAAGAGTAGCTTTCTGACTGTGCTAG: -0.284 z-score
TTAGGTATTGGGTATCGGTTAGTGCTA: 3.67 z-score
TTAGAACTGGGGTTCCGATTAGTGCTA: 0.556 z-score
GAAGGTTTCGGTTTCGGGACGTGCTAG: 12.8 z-score
GACGGTTTAGGGACTGGGGACGTGCTA: -0.0415 z-score
TTAGGTTTCCTACTGCTTAAGTGCTAG: 1.22 z-score
GACGATCTCGGGTTTCGAGACGTGCTA: 2.16 z-score
GCATTTTTTTTTTCTACTTCGTGCTAG: 1.85 z-score
CTTGCTCTTGTTTTCACAGGGTGCTAG: 0.951 z-score
GACGTTATCGGGACTGGAGACGTGCTA: -0.242 z-score
CTGGTTTTTACTTTCTGAATGTGCTAG: 1.69 z-score
CTGTTTCTGTGTCACAGAGGGTGCTAG: 2.66 z-score
TTAGGTCTCCTTTTCGTTTAGTGCTAG: 0.916 z-score

For quick reference, copied from above (set 1):
CUCAAGUCCUGUGCUACACAUCGUAUGUACCGAAUCGGGUGGGUGGGUUUGGGAAAGUAUUAUGUUACGCCGUUCGGAUCUGCACUUCCA: 1
UCAAGUCCUGUGCUACACAUCGUAUGUACCGAAUCGGAAAAAGGAAAAAGGUGGAAAGUAUUAUGUUACGCCGUUCGGAUCUGCACUUCC: -0.521
UGGCCCUGGUGGCAUGCGGGGUGGAAGAGGUGGCCUCAUGGAUCGUGGUGGUCCCGGUGGAAUGUUCAGAGGUGGCCGUGGUGGAGACAG: -0.079
CAAGUCCUGUGCUACACAUCGUAUGUACCGAAUCGGGCCCGGGCCCGGCCCGGGGAAAGUAUUAUGUUACGCCGUUCGGAUCUGCACUUC: -0.726
CCUGUGCUACACAUCGUAUGUACCGAAUCGGUUUUUUUGGGUUUUUUUGGGUUUUUUUGGGAAAGUAUUAUGUUACGCCGUUCGGAUCUG: -0.837
